# Experimental data gathered from unrelated publications.
# Lines come from different studies, so protocols differ. ± marks the error that the study gave.
# MC4R: Melanocortin receptor 4 (MC4R, Homo sapiens, UniProt P32245)
# Chain of UniProt P32245 (whole entry, unmodified, looked up): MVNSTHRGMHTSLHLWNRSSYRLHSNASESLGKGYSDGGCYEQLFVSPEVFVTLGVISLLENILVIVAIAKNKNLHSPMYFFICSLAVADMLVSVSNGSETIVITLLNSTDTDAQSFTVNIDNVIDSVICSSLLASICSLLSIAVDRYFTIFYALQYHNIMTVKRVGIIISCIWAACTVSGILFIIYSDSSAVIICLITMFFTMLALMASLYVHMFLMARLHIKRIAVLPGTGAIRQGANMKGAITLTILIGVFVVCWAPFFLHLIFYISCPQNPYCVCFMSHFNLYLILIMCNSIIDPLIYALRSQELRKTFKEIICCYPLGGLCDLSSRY
# MC4R L133M: Melanocortin receptor 4 (MC4R, Homo sapiens, UniProt P32245, L133M)
SMILES,target,test,test system,conditions,measurement,value
N=C(N)NCCC[C@H](NC(=O)[C@H](CC(=O)O)NC(=O)[C@@H]1CSCC(=O)NCC(=O)N[C@@H](Cc2c[nH]cn2)C(=O)N[C@H](Cc2ccccc2)C(=O)N[C@@H](CCCNC(=N)N)C(=O)N[C@@H](Cc2c[nH]c3ccccc23)C(=O)N1)C(=O)N[C@@H](Cc1ccccc1)C(=O)NCC(N)=O,MC4R,"cAMP, agonist",,,EC50,800 nM
N=C(N)NCCC[C@H](NC(=O)[C@@H](Cc1ccccc1)NC(=O)[C@H](Cc1c[nH]cn1)NC(=O)CCCCCn1cc(COc2cc(OCc3cn(CCCCCC(=O)N[C@@H](Cc4c[nH]cn4)C(=O)N[C@H](Cc4ccccc4)C(=O)N[C@@H](CCCNC(=N)N)C(=O)N[C@@H](Cc4c[nH]c5ccccc45)C(N)=O)nn3)cc(OCc3cn(CCCCCC(=O)N[C@@H](Cc4c[nH]cn4)C(=O)N[C@H](Cc4ccccc4)C(=O)N[C@@H](CCCNC(=N)N)C(=O)N[C@@H](Cc4c[nH]c5ccccc45)C(N)=O)nn3)c2)nn1)C(=O)N[C@@H](Cc1c[nH]c2ccccc12)C(N)=O,MC4R,ligand displacement,,,Ki,45 nM
CC[C@H](C)[C@H](NC(=O)CN)C(=O)N[C@H](C(=O)N[C@@H](CC(N)=O)C(=O)N[C@H](C(=O)N[C@@H](CC(C)C)C(=O)N[C@@H](CCC(N)=O)C(=O)N[C@@H](CCC(N)=O)C(=O)N[C@@H](Cc1ccc(O)cc1)C(=O)N[C@@H](Cc1ccc(O)cc1)C(=O)N[C@@H](CO)C(=O)N[C@@H](CCC(N)=O)C(=O)N[C@H](C(=O)N[C@@H](CCCNC(=N)N)C(=O)NCC(=O)NCC(=O)N[C@@H](CCCNC(=N)N)C(=O)N[C@@H](CO)C(=O)N[C@@H](C)C(=O)N[C@H](C(=O)N[C@@H](CC(C)C)C(=O)N[C@@H](CO)C(=O)N[C@@H](CO)C(=O)N[C@@H](CC(C)C)C(=O)N1CCC[C@H]1C(=O)N[C@@H](CCCCN)C(=O)N[C@@H](CCC(=O)O)C(=O)N[C@@H](CCC(=O)O)C(=O)N[C@@H](CCC(N)=O)C(=O)N[C@H](C(=O)NCC(=O)N[C@@H](CCC(N)=O)C(=O)N[C@@H](CO)C(=O)N[C@@H](CO)C(=O)N[C@H](C(=O)N[C@@H](CCC(N)=O)C(=O)NCC(=O)N[C@@H](CCC(N)=O)C(=O)N[C@@H](CCC(N)=O)C(=O)N[C@@H](CO)C(=O)N[C@@H](CO)C(=O)N[C@@H](CCCNC(=N)N)C(=O)N[C@@H](CCCNC(=N)N)C(=O)N[C@@H](CCCCN)C(=O)N[C@@H](CCCCN)C(N)=O)[C@@H](C)O)[C@@H](C)CC)C(C)C)C(C)C)[C@@H](C)O)[C@@H](C)CC,MC4R,,HEK-293T transfected,"2 h, 37 °C, with: Eu-NDP-MSH",Ki,> 5000 nM
CCCC[C@H](NC(=O)[C@H](CO)NC(C)=O)C(=O)N[C@@H](CCC(=O)O)C(=O)N[C@@H](Cc1c[nH]cn1)C(=O)N[C@H](Cc1ccccc1)C(=O)N[C@@H](CCCNC(=N)N)C(=O)N[C@@H](Cc1c[nH]c2ccccc12)C(N)=O,MC4R,"binding, time-resolved fluorescence competition",,,IC50,39 ± 4 nM
N=C(N)NCCC[C@H](NC(=O)[C@@H](Cc1ccccc1)NC(=O)[C@H](Cc1c[nH]cn1)NC(=O)C=Cc1ccc(O)cc1)C(=O)N[C@@H](Cc1c[nH]c2ccccc12)C(N)=O,MC4R,"binding, TR-FRET competition",HEK293 transfected,"1 h, 37 °C, with: 10 nM Eu-NDP-α-MSH",Ki,> 10000 nM
N=C(N)NCCC[C@H](NC(=O)[C@@H](Cc1ccccc1)NC(=O)[C@H](Cc1c[nH]cn1)NC(=O)CCc1cn(CC(=O)NCCC(=O)NCCCC(CCCNC(=O)CCNC(=O)Cn2cc(CCC(=O)N[C@@H](Cc3c[nH]cn3)C(=O)N[C@H](Cc3ccccc3)C(=O)N[C@@H](CCCNC(=N)N)C(=O)N[C@@H](Cc3c[nH]c4ccccc34)C(N)=O)nn2)(NC(=O)CNC(=O)CCNC(=O)Cn2cc(CCC(=O)N[C@@H](Cc3c[nH]cn3)C(=O)N[C@H](Cc3ccccc3)C(=O)N[C@@H](CCCNC(=N)N)C(=O)N[C@@H](Cc3c[nH]c4ccccc34)C(N)=O)nn2)C(=O)NCCC(N)=O)nn1)C(=O)N[C@@H](Cc1c[nH]c2ccccc12)C(N)=O (some centres unmarked),MC4R,"binding, competitor, time-resolved fluorescence",HEK293 overexpressing MC4R,with: 10 nM Eu-NDP-α-MSH,IC50,73 ± 3.5 nM
CCCC[C@H](NC(=O)[C@H](CO)NC(=O)[C@H](Cc1ccc(O)cc1)NC(=O)[C@H](CO)NC(C)=O)C(=O)N[C@@H](CCC(=O)O)C(=O)N[C@@H](Cc1c[nH]cn1)C(=O)N[C@H](Cc1ccccc1)C(=O)N[C@@H](CCCNC(=N)N)C(=O)N[C@@H](Cc1c[nH]c2ccccc12)C(=O)NCC(=O)N[C@@H](CCCCN)C(=O)N1CCC[C@H]1C(=O)N[C@H](C(=O)NCC(=O)N[C@@H](CCCCN)C(=O)N[C@@H](CCCCN)C(=O)N[C@@H](CCCNC(=N)N)C(N)=O)C(C)C,MC4R L133M,"cAMP, agonist",,,EC50,2.3 nM
CC[C@H](C)[C@H](NC(=O)[C@H](CCC(N)=O)NC(=O)[C@H](CCC(=O)O)NC(=O)[C@H](CCC(=O)O)NC(=O)[C@H](CCCCN)NC(=O)[C@@H]1CCCN1C(=O)[C@H](CC(C)C)NC(=O)[C@H](CO)NC(=O)[C@H](CO)NC(=O)[C@@H](N)CC(C)C)C(=O)NCC(=O)N[C@@H](CCCCN)C(=O)N[C@@H](CO)C(=O)N[C@@H](CO)C(=O)N[C@H](C(=O)N[C@@H](CCCNC(=N)N)C(=O)NCC(=O)N[C@@H](CCCNC(=N)N)C(=O)N[C@@H](CCCCN)C(=O)N[C@@H](CO)C(=O)N[C@@H](CO)C(=O)N[C@@H](CCCNC(=N)N)C(=O)N[C@@H](CCCNC(=N)N)C(=O)N[C@@H](CCCCN)C(=O)N[C@@H](CCCCN)C(N)=O)[C@@H](C)O,MC4R,,HEK-293T transfected,"2 h, 37 °C, with: Eu-NDP-MSH",Ki,> 5000 nM
N=C(N)NCCC[C@H](NC(=O)[C@@H](Cc1ccccc1)NC(=O)[C@H](Cc1c[nH]cn1)NC(=O)CCCCCn1cc(CN(Cc2cn(CCCCCC(=O)N[C@@H](CO)C(N)=O)nn2)Cc2cn(CCCCCC(=O)N[C@@H](CO)C(N)=O)nn2)nn1)C(=O)N[C@@H](Cc1c[nH]c2ccccc12)C(N)=O,MC4R,ligand displacement,,,Ki,2210 nM
CCCC[C@H](NC(=O)[C@@H](NC(=O)[C@@H](N)Cc1ccc(O)cc1)C(C)C)C(=O)NCC(=O)N[C@@H](Cc1c[nH]cn1)C(=O)N[C@@H](Cc1ccccc1)C(=O)N[C@@H](CCCN=C(N)N)C(=O)N[C@@H](Cc1c[nH]c2ccccc12)C(=O)N[C@@H](CC(=O)O)C(=O)N[C@@H](CCCN=C(N)N)C(=O)N[C@@H](Cc1ccccc1)C(=O)NCC(N)=O,MC4R,"ligand displacement, radioligand",,,IC50,64 nM
CCCC[C@H](NC(=O)[C@H](CO)NC(=O)[C@H](Cc1ccc(O)cc1)NC(=O)[C@H](CO)NC(C)=O)C(=O)N[C@@H](CCC(=O)O)C(=O)N[C@@H](Cc1c[nH]cn1)C(=O)N[C@H](Cc1ccc2ccccc2c1)C(=O)N[C@@H](CCCNC(=N)N)C(=O)N[C@@H](Cc1c[nH]c2ccccc12)C(=O)NCC(=O)N[C@@H](CCCCN)C(=O)N1CCC[C@H]1C(=O)N[C@H](C(=O)NCC(=O)N[C@@H](CCCCN)C(=O)N[C@@H](CCCCN)C(=O)N[C@@H](CCCNC(=N)N)C(N)=O)C(C)C,MC4R L133M,"cAMP, agonist",,,EC50,121 nM

# Repeated from above:
SMILES,target,test,test system,conditions,measurement,value
CC[C@H](C)[C@H](NC(=O)CN)C(=O)N[C@H](C(=O)N[C@@H](CC(N)=O)C(=O)N[C@H](C(=O)N[C@@H](CC(C)C)C(=O)N[C@@H](CCC(N)=O)C(=O)N[C@@H](CCC(N)=O)C(=O)N[C@@H](Cc1ccc(O)cc1)C(=O)N[C@@H](Cc1ccc(O)cc1)C(=O)N[C@@H](CO)C(=O)N[C@@H](CCC(N)=O)C(=O)N[C@H](C(=O)N[C@@H](CCCNC(=N)N)C(=O)NCC(=O)NCC(=O)N[C@@H](CCCNC(=N)N)C(=O)N[C@@H](CO)C(=O)N[C@@H](C)C(=O)N[C@H](C(=O)N[C@@H](CC(C)C)C(=O)N[C@@H](CO)C(=O)N[C@@H](CO)C(=O)N[C@@H](CC(C)C)C(=O)N1CCC[C@H]1C(=O)N[C@@H](CCCCN)C(=O)N[C@@H](CCC(=O)O)C(=O)N[C@@H](CCC(=O)O)C(=O)N[C@@H](CCC(N)=O)C(=O)N[C@H](C(=O)NCC(=O)N[C@@H](CCC(N)=O)C(=O)N[C@@H](CO)C(=O)N[C@@H](CO)C(=O)N[C@H](C(=O)N[C@@H](CCC(N)=O)C(=O)NCC(=O)N[C@@H](CCC(N)=O)C(=O)N[C@@H](CCC(N)=O)C(=O)N[C@@H](CO)C(=O)N[C@@H](CO)C(=O)N[C@@H](CCCNC(=N)N)C(=O)N[C@@H](CCCNC(=N)N)C(=O)N[C@@H](CCCCN)C(=O)N[C@@H](CCCCN)C(N)=O)[C@@H](C)O)[C@@H](C)CC)C(C)C)C(C)C)[C@@H](C)O)[C@@H](C)CC,MC4R,,HEK-293T transfected,"2 h, 37 °C, with: Eu-NDP-MSH",Ki,> 5000 nM
